Literature values, collected from citations in different studies.
Numbers after ± are the reported error.

| SMILES | target or system | test | system | conditions | quantity | value |
| --- | --- | --- | --- | --- | --- | --- |
| c1ccc2c(c1)ccc[n+]2CCCCCCCCCC[n+]1cccc2ccccc21 | muscle-type nicotinic acetylcholine receptor | acetylcholine-evoked current, antagonist | – | added: acetylcholine 100 µM | IC50 | 570 ± 5 nM |
| COc1ccc(NC(=O)CSc2nc3c(N)ncnc3[nH]2)cc1OC | ENPP1 (human) | inhibitor | – | pH 9, added: p-nitrophenyl-TMP substrate | Ki | 5 nM |
| CNCCNC(=O)c1cc2c([nH]c3c(C)cccc32)c(-c2ccc(Cl)c(Cl)c2)n1 | Plasmodium falciparum | SYBR Green I | Dd2 | 72 h, asexual blood stage | EC50 | ~100 nM |
| COc1ccc(OCC2c3cc(OC(C)C)ccc3CCN2C(=O)c2cccc(Cl)c2)cc1 (racemic) | kainate receptor | receptor activity | – | – | effect on kainate receptors | no effect |
| NCCNCCSc1ccccc1 | – | – | plasma | 1 µg/mL, 24 h, room temperature | short-term stability | 95.9 ± 3.76 % remaining |
| O=C(Cc1ccc(Cl)c(Cl)c1)N1CC[C@H]2CC[C@@H](N3CCCC3)[C@@H]1C2 | kappa opioid receptor | binding | – | – | Ki | 18 nM |
| CCC(=O)Nc1c(NC[C@H](O)[C@H](O)[C@H](O)CO)[nH]c(=O)[nH]c1=O | Bacillus subtilis lumazine synthase | substrate | – | pH 7.0 | Ks | 3.2 ± 0.3 µM |
| O=CN(O)C/C=C/P(=O)(O)O | Plasmodium falciparum | parasite growth, inhibitor | 3D7 | – | IC50 | 13 to 19 nM |
| N[C@@H](Cc1ccc(O)cc1)C(=O)N1Cc2ccccc2C[C@H]1CN[C@@H](CC1CCCCC1)C(=O)N[C@@H](Cc1ccccc1)C(=O)O | delta opioid receptor | muscle contraction, antagonist | mouse vas deferens | – | Ke | 0.175 ± 0.025 nM |
| O=C(Cc1cccs1)NC(B(O)O)c1cccc(C(=O)O)c1 (stereo not drawn) | Enterobacter cloacae P99 AmpC β-lactamase | inhibitor | – | – | Ki | 29 nM |
| CN(C(=O)Cc1ccc(Cl)c(Cl)c1)[C@@H]1CCCC[C@H]1N1CCCC1 | Trypanosoma brucei | parasite growth | – | – | EC50 | 59 nM |
| O=C(N[C@@H]1CC[C@@]2(O)[C@H]3Cc4ccc(O)c5c4[C@@]2(CCN3CC2CC2)[C@H]1O5)c1ccncc1F | kappa opioid receptor | binding | – | – | Ki | 4.8 ± 0.26 nM |
| CN(CCNCc1cc(Cl)cc(Cl)c1)c1nc2nc(Cl)ccc2[nH]1 | Trypanosoma brucei | cell growth | – | – | EC50 | 22 nM |
| CCCCCCCCCCCCNC(=O)N[C@H](C(=O)N[C@H]1/C=C/CCNC(=O)/C=C/[C@H](C)NC1=O)C(C)C | constitutive proteasome, chymotrypsin-like site | enzyme activity | – | – | Ki | 18 nM |
| N[C@@H](Cc1ccc(C(=O)NCCc2ccc(-c3ccccc3)cc2)cc1)C(=O)N1Cc2ccccc2C[C@H]1C(=O)O | mu opioid receptor | muscle contraction, antagonist | guinea pig ileum | – | Ke | 5380 ± 380 nM |

Some of these lines once more:
| SMILES | target or system | test | system | conditions | quantity | value |
| --- | --- | --- | --- | --- | --- | --- |
| CN(C(=O)Cc1ccc(Cl)c(Cl)c1)[C@@H]1CCCC[C@H]1N1CCCC1 | Trypanosoma brucei | parasite growth | – | – | EC50 | 59 nM |
| O=C(N[C@@H]1CC[C@@]2(O)[C@H]3Cc4ccc(O)c5c4[C@@]2(CCN3CC2CC2)[C@H]1O5)c1ccncc1F | kappa opioid receptor | binding | – | – | Ki | 4.8 ± 0.26 nM |
